Measured values gathered from unrelated publications.
Parts stem from different laboratories: compare values within a part only.
Chain of UniProt P09619 (whole entry, looked up): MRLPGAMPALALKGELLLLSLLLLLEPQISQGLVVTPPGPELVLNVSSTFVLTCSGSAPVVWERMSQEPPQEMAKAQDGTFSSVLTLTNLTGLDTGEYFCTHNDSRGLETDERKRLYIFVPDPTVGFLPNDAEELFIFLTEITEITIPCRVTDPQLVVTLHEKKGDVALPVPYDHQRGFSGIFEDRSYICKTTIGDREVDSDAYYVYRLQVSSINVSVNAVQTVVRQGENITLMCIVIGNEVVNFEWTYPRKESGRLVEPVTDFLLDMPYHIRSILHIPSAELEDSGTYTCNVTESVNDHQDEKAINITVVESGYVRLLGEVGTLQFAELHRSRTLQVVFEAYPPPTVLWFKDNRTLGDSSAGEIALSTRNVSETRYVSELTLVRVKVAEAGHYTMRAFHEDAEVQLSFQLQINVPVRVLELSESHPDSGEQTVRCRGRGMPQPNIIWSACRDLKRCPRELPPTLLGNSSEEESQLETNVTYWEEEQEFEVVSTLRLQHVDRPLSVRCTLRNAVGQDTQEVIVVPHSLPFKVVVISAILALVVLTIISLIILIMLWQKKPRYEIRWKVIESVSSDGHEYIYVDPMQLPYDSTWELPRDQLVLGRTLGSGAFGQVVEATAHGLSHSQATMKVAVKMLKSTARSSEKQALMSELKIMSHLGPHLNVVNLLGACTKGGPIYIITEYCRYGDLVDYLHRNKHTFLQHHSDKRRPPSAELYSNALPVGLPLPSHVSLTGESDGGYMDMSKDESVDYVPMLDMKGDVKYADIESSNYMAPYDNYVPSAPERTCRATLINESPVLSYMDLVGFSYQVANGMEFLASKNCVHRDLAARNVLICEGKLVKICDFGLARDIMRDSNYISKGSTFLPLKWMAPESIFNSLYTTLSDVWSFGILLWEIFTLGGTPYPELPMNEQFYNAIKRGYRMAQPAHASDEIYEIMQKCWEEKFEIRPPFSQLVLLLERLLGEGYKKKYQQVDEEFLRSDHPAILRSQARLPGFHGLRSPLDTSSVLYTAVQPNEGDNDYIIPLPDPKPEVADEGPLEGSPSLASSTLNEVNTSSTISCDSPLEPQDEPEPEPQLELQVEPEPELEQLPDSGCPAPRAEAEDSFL
Chain of UniProt Q00526 (whole entry, looked up): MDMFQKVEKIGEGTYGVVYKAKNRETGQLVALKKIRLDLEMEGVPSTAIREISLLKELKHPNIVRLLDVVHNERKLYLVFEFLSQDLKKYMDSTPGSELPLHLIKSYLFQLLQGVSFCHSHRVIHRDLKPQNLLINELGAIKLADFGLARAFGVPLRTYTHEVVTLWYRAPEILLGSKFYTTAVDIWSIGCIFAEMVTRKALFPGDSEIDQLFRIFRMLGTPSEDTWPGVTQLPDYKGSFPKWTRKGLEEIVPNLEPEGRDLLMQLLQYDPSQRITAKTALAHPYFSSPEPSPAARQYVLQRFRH
Chain of UniProt Q9UBE8 (whole entry, looked up): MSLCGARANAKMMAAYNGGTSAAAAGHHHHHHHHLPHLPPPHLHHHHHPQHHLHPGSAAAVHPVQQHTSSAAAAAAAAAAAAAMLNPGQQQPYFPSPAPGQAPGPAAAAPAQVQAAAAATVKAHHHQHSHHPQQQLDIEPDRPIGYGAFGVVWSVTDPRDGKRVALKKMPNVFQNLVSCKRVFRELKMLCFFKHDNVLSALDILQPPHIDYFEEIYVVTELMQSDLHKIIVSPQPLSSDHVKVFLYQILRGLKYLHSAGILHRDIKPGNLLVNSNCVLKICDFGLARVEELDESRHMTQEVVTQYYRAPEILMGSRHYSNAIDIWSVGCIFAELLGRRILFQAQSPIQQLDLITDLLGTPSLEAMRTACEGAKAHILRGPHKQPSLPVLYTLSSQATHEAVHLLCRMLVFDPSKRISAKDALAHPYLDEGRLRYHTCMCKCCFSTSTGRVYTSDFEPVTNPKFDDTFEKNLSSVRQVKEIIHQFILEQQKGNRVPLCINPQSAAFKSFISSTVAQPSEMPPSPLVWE
Chain of UniProt P16591 (whole entry, looked up): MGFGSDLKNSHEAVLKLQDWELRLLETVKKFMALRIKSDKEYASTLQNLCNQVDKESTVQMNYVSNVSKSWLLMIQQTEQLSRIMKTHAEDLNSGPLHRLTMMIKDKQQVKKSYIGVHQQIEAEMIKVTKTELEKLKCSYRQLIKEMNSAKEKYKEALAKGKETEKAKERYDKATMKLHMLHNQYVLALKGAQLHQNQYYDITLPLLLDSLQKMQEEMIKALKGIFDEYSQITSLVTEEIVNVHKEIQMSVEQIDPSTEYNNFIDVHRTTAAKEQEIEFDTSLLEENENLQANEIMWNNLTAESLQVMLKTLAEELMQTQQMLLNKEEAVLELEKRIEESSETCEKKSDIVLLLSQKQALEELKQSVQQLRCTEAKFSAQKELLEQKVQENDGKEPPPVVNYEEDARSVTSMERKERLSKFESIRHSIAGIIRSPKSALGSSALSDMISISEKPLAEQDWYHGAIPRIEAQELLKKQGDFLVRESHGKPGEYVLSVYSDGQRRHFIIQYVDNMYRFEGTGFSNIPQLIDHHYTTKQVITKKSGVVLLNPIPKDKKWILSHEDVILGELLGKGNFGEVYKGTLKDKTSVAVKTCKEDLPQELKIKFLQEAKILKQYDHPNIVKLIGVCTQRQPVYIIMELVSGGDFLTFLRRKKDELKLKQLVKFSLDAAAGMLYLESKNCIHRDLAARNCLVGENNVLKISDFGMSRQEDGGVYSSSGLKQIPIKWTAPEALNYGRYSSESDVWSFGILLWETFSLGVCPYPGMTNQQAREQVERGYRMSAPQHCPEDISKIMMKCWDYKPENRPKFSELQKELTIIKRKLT
Chain of UniProt P53667 (whole entry, looked up): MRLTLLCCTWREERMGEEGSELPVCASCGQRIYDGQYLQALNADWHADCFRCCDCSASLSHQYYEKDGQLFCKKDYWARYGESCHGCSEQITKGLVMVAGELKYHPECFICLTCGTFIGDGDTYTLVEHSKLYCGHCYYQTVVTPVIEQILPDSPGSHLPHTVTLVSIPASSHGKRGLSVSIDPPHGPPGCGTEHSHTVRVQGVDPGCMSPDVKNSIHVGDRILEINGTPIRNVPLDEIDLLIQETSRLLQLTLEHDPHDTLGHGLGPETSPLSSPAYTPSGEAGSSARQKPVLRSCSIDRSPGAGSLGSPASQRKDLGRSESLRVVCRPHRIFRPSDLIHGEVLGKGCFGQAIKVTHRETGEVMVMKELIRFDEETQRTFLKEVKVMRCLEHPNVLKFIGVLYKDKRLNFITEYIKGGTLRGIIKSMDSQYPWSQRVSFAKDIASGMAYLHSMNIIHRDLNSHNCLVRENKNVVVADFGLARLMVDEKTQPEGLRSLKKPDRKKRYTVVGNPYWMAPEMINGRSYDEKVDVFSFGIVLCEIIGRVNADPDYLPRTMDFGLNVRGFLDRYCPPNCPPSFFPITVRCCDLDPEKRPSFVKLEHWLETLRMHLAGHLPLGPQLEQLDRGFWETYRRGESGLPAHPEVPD
Chain of UniProt P06213 (whole entry, looked up): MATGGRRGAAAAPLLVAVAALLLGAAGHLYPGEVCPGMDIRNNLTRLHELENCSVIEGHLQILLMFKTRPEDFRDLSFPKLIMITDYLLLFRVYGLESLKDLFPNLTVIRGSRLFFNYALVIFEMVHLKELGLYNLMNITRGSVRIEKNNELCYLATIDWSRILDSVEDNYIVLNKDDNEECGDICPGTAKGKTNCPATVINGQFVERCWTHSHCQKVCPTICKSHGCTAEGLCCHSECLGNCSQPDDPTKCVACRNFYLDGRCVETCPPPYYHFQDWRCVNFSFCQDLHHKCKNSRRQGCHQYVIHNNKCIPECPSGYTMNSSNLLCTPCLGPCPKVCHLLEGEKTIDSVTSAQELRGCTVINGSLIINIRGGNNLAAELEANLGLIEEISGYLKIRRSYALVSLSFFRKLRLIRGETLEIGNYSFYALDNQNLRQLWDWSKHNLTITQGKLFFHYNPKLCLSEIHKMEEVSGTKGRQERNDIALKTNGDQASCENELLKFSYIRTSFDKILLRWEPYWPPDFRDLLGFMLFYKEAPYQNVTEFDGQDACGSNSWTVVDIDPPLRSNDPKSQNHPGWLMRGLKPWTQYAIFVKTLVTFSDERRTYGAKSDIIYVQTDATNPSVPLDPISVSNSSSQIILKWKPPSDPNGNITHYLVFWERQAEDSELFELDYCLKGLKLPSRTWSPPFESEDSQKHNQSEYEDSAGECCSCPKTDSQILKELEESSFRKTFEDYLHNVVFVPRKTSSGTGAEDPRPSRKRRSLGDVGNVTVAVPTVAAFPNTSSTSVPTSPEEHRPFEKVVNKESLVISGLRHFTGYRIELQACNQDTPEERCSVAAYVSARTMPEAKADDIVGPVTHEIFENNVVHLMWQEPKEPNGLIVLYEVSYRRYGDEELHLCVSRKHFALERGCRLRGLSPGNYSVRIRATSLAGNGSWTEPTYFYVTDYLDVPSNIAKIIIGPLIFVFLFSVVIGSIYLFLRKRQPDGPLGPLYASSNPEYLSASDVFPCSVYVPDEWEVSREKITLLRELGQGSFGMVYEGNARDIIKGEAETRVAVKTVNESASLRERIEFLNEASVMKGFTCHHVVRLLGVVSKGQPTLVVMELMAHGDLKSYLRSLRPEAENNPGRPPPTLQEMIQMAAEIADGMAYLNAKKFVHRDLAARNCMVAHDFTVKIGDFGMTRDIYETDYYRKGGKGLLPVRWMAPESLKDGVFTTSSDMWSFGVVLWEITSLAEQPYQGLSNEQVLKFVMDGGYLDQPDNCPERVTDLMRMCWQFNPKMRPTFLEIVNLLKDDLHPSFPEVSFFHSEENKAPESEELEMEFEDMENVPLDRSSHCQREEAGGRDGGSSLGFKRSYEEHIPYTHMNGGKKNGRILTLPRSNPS

Sample 1 — organism: Sarcocystis neurona; effect on: parasite activity; concentration: 10 µM; time: 96 h
SMILES	activity class
CC(=O)OCC(=O)[C@@]1(O)CC[C@H]2[C@@H]3CCC4=CC(=O)C=C[C@]4(C)[C@H]3[C@@H](O)C[C@@]21C	inactive
CO[C@@]1(NC(=O)Cc2cccs2)C(=O)N2C(C(=O)O)=C(COC(N)=O)CS[C@@H]21	inactive
c1ccc2[nH]c(-c3cscn3)nc2c1	inactive
CC(C)/N=c1\cc2n(-c3ccc(Cl)cc3)c3ccccc3nc-2cc1Nc1ccc(Cl)cc1	active
CCOC(=O)N1CCC(=C2c3ccc(Cl)cc3CCc3cccnc32)CC1	inactive

Sample 2 — effect on: enzyme activity; action: inhibitor; concentration: 0.5 µM; baseline: control
Structure (SMILES): CN1CCN(c2ccc3nc(-c4c(N)c5c(F)cccc5[nH]c4=O)[nH]c3c2)CC1
target	remaining activity [%]
STK25 (Homo sapiens, UniProt O00506)	86
NLK (Homo sapiens, UniProt Q9UBE8)	110
CDC42BPA (Homo sapiens, UniProt Q5VT25)	97
FLT4 (Homo sapiens, UniProt P35916)	11.3
PRKX (Homo sapiens, UniProt P51817)	104
MATK (Homo sapiens, UniProt P42679)	74.9
NEK11 (Homo sapiens, UniProt Q8NG66)	93.6
ALK (Homo sapiens, UniProt Q9UM73)	80.5
TAOK3 (Homo sapiens, UniProt Q9H2K8)	84.2
Cyclin-dependent kinase 3, with cyclin E (CDK3, Homo sapiens, UniProt Q00526)	92.3
FYN (Homo sapiens, UniProt P06241)	22.5
AKT1 (Homo sapiens, UniProt P31749)	98.5
FER (Homo sapiens, UniProt P16591)	94.6
MARK3 (Homo sapiens, UniProt P27448)	36.5
PASK (Homo sapiens, UniProt Q96RG2)	105
Insulin receptor (INSR, Homo sapiens, UniProt P06213)	84
SRC (Homo sapiens, UniProt P12931)	16
FGR (Homo sapiens, UniProt P09769)	6.34
LIM domain kinase 1 (LIMK1, Homo sapiens, UniProt P53667)	88.3
PKN1 (Homo sapiens, UniProt Q16512)	15.5

Sample 3 — technique: RNA Bind-n-Seq; form: RNA; sample: in vitro; concentration: 365 nM; baseline: no-protein control; reading: higher = stronger binding
Target: RNA binding protein fox-1 homolog 2, RRM domain, GST-SBP tag (RBFOX2, Homo sapiens, UniProt O43251-10, residues 100-194)
Setting: natural RNA segment, single round, ends assumed
Constant ends, left off below: GGGAGUUCUACAGUCCGACGAUC … UGGAAUUCUCGGGUGCCAA
Construct (chain): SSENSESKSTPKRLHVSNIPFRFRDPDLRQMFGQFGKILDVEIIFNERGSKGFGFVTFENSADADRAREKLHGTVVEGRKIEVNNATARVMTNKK
Oligonucleotide	RBNS enrichment (R)
UGUUUUGGCCACGCCUCACCAAAUGUCUGUAAUGACCCAGUACUCACAACAUGUUCAGGAGGAGCUGGGUCAGAUUUUGACAGAGGGUAUGGGAAGGGAAAGGGGAGAAG	0.481
GAGGUGGAGGUUACAGUGAGCUGAGAGUGCCCCACUGCACUCCAGCCUGGGUGACAGAGCGAGACUUUGUCCCAAAACAAAAUAGGUGAGGGGAUAGCGAAUGCACUCAG	0.928
CAAAACAAAUCAAUCGGGAGGGGACCACUGAGAAAGAGGUAACAGUUAUUAAAGGAUGUUUUUGCAACUCUGGAGUGCCUGGGUAGUUGCAUUCUGAAGAGGGUGUCCCC	0.654
UUGCUUCAGAAUAGAUCUUUAUCAUCAUGUCUGCCUUUCCAUACUAUUGUAUUUAUUUUAGAAACUGAGAUAUACAUAGCAUGAUUACUUUUACAGAAGAAACUAAAAGA	0.779
UUAUUUUAGGAUGCCAACAUGAGACCUGUAAUAAAAUAUGUAAUGGGGUUGAAGGCUGGGGAGGAGGAUCUACUGCUGUACAGCUAAUAAAUCAUAACGGAUUAACAGGC	0.748
UCAGUUAAGCUCAAUAGCGAAUGUGGGACCCCCUCCUCUGACCUUCCCUGGGGGAGAAACCCUCUUGGCUAAUGGCUCUUCCCUGGCAUUAUCAAUAACCACCCGGGGAC	0.486
GUUUAUAUGACUUUAAUAUCCACAGUGGUAAUCUAAUACCUUACCUCACAGGUUUUCAUUCUUUUGAACUCUGGUGCACUCCAUCUGUAAUCCAUGUCUAUAAUCUACCA	0.333
CACUAUGAACAGAACCCUGCCCAUGAGAGGCACUUGUAGGUGAAACUCUCUUUUCUUGUUCUUUUUGUGCUCAAGACCCACUGUUAUAGGAAUAAAGUUUAUGAGCUCAA	0.437

Sample 4 — effect on: cell-free assay; technique: competition with immobilised ligand; concentration: 1 µM
Compound: CN([C@@H]1CCc2c(CC(=O)O)c3cc(S(C)(=O)=O)ccc3n2C1)S(=O)(=O)c1ccc(F)cc1
target	remaining binding [%]
PDGFRB (Homo sapiens, UniProt P09619)	86
PIK3C3 (Homo sapiens, UniProt Q8NEB9)	100
Tyrosine-protein kinase JAK3, JH1 (JAK3, Homo sapiens, UniProt P52333)	100
WNK4 (Homo sapiens, UniProt Q96J92)	100

Sample 5 — technique: protein binding microarray; form: double-stranded DNA, one strand shown; sample: in vitro; concentration: not given; baseline: not given; reading: higher = stronger binding
Target: Histone acetyltransferase KAT6A, winged helix 2, GST fusion (KAT6A, Homo sapiens, UniProt Q92794, residues 85-181)
Setting: 8-mer, flanks averaged, mean of 2 arrays, mostly near background
Residues (chain): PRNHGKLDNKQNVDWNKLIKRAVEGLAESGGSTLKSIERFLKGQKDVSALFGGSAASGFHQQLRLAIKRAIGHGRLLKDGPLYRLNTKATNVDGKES
Oligonucleotide	E-score
ACTAGTCC	-0.0246
CACCTCCC	-0.102
CAAGCGTC	0.0965
AATGGAGT	0.0368
GAAAACGA	0.00392
GTTTACGA	-0.0379
AACCAGTG	-0.205
ACAGATCT	-0.0983

Mixed results
Substance	partner	technique	sample	together with	endpoint	result
H1-2 (Homo sapiens, UniProt P16403)	OTX2 (Homo sapiens, UniProt P32243)	cross-linking MS	cells	BSPNO	cross-linked residues	K130 to K113

A few entries again (sample 2):
target	remaining activity [%]
ALK (Homo sapiens, UniProt Q9UM73)	80.5
LIM domain kinase 1 (LIMK1, Homo sapiens, UniProt P53667)	88.3
SRC (Homo sapiens, UniProt P12931)	16
Cyclin-dependent kinase 3, with cyclin E (CDK3, Homo sapiens, UniProt Q00526)	92.3
